Measured values pooled from the literature.
Parts stem from different laboratories: compare values within a part only.
Sequence of UniProt P42681 (whole entry, looked up): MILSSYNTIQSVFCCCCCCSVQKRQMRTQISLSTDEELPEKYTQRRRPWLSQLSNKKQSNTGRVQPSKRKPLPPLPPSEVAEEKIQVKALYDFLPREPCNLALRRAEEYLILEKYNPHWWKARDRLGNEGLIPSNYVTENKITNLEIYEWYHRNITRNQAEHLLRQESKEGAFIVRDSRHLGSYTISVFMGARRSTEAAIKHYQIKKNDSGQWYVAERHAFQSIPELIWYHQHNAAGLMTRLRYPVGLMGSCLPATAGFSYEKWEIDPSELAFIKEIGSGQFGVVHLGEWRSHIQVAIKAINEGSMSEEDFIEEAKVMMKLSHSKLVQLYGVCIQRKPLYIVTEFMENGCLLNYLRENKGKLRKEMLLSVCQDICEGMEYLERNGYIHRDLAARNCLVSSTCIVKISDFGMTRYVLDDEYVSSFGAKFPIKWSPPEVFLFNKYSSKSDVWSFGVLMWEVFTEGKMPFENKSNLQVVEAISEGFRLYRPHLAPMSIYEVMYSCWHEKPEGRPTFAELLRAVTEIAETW
Sequence of UniProt P28482 (whole entry, looked up): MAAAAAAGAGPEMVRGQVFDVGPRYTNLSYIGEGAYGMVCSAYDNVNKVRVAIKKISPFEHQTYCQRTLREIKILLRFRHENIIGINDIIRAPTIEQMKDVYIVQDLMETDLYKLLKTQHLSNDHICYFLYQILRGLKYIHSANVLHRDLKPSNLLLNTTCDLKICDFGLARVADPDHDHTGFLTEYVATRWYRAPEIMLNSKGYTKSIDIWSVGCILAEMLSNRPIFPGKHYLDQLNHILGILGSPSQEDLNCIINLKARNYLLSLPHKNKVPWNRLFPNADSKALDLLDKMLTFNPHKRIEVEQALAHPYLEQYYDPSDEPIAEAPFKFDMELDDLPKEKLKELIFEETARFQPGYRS
Sequence of UniProt Q16566 (whole entry, looked up): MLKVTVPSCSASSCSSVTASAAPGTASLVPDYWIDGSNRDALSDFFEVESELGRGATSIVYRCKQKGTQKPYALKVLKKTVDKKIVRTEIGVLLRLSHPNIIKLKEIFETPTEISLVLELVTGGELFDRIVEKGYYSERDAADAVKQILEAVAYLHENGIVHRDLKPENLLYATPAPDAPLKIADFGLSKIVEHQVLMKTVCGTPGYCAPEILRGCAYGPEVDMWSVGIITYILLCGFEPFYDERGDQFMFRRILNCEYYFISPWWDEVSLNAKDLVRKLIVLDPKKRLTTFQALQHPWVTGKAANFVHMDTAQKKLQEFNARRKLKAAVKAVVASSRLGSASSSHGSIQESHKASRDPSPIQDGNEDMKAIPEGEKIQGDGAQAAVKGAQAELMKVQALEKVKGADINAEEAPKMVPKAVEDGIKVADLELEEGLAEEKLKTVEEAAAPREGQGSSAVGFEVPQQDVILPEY
Sequence of UniProt P0C264 (whole entry, looked up): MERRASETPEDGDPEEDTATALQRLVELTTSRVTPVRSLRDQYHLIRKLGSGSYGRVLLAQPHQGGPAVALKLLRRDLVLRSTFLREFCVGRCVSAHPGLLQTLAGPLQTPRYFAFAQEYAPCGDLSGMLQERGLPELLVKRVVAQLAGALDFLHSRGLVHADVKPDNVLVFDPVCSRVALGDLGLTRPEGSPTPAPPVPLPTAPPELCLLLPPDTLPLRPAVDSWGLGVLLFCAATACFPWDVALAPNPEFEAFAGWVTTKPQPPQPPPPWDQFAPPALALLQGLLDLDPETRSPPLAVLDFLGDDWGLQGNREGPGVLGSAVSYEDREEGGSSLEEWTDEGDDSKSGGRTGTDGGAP
Sequence of UniProt Q9H4B4 (whole entry, looked up): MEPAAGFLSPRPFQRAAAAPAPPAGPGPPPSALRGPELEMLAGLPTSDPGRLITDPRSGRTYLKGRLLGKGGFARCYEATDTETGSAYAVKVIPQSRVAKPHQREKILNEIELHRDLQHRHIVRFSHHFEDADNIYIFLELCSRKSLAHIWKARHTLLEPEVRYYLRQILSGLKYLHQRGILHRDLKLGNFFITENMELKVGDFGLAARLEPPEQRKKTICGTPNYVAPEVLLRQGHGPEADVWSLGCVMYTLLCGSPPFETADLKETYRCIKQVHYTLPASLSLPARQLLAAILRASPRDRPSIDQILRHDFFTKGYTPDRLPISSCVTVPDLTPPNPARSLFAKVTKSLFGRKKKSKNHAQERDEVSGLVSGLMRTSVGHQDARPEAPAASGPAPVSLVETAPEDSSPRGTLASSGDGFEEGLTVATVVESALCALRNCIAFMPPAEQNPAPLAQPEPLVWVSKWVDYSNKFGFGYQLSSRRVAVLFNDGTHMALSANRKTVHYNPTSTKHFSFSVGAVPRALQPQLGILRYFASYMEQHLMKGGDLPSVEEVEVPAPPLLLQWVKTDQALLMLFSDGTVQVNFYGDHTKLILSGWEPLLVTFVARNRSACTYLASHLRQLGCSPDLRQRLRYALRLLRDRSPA
Sequence of UniProt P08581 (whole entry, looked up): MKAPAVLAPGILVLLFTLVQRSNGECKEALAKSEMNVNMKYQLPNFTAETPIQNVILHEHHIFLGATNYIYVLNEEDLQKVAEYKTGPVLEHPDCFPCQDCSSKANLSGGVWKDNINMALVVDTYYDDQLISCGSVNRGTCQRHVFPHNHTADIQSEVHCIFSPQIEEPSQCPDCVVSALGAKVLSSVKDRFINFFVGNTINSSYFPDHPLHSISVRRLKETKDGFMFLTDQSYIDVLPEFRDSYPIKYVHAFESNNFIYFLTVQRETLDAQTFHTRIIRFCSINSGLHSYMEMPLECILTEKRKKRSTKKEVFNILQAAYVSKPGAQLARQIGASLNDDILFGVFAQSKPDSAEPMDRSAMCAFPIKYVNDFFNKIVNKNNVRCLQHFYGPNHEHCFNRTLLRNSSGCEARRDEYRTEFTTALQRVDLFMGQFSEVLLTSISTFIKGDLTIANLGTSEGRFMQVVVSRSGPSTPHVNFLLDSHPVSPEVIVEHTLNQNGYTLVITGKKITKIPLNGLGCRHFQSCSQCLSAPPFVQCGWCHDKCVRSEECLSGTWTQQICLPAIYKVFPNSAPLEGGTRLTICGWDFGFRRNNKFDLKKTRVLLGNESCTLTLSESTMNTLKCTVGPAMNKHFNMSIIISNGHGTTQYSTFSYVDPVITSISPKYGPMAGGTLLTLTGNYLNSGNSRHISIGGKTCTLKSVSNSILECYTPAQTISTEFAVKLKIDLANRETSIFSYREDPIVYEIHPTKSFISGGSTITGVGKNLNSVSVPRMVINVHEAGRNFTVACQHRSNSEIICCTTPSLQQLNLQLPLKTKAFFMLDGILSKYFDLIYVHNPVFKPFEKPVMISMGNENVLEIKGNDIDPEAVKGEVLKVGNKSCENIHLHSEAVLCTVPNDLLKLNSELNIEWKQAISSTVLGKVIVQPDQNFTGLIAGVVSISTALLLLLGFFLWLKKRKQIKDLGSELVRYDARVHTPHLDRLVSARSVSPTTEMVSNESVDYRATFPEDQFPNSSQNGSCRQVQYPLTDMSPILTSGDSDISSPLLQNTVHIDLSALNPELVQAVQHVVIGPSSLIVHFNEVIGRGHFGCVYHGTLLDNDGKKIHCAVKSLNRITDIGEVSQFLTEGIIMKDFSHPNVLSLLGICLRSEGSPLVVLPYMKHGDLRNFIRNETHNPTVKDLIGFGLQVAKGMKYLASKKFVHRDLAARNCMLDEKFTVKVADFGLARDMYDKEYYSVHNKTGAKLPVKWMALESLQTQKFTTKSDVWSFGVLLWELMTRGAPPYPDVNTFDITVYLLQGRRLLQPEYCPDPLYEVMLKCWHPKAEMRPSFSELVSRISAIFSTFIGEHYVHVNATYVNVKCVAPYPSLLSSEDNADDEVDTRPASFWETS
Sequence of UniProt P49759 (whole entry, looked up): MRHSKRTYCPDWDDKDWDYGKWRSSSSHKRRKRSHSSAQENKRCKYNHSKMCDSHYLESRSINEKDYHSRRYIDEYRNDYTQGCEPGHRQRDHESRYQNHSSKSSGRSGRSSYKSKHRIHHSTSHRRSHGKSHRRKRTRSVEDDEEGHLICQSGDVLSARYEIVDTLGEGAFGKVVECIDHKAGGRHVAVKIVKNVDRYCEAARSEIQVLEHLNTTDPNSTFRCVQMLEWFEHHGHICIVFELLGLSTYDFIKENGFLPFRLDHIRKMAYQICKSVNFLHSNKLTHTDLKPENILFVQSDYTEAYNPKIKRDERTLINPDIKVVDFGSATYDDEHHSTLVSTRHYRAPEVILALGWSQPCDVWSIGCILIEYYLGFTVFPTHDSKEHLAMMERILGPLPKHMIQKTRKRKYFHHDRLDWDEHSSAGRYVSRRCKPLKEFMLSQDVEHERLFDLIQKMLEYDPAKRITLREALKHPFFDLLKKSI

Block 1
SMILES: Cc1ccc(NC2=CC(=O)c3sc(C)nc3C2=O)cc1
Observed: enzyme activity
Action: inhibitor
Concentration: 0.5 µM
Reference: control
| target | remaining activity [%] |
| --- | --- |
| Dual specificity mitogen-activated protein kinase kinase 1 (MAP2K1, Homo sapiens, UniProt Q02750) | 96.1 |
| Serine/threonine-protein kinase PAK 3 (PAK3, Homo sapiens, UniProt O75914) | 97.5 |
| Dual specificity protein kinase CLK4 (CLK4, Homo sapiens, UniProt Q9HAZ1) | 99.1 |
| Mitogen-activated protein kinase 1 (MAPK1, Homo sapiens, UniProt P28482) | 91.4 |
| Serine/threonine-protein kinase DCLK2 (DCLK2, Homo sapiens, UniProt Q8N568) | 95.3 |
| Calcium/calmodulin-dependent protein kinase type IV (CAMK4, Homo sapiens, UniProt Q16566) | 98.5 |
| Serine/threonine-protein kinase PLK3 (PLK3, Homo sapiens, UniProt Q9H4B4) | 94.5 |
| Ribosomal protein S6 kinase alpha-4 (RPS6KA4, Homo sapiens, UniProt O75676) | 88.4 |
| Misshapen-like kinase 1 (MINK1, Homo sapiens, UniProt Q8N4C8) | 101 |
| Serine/threonine-protein kinase MARK2 (MARK2, Homo sapiens, UniProt Q7KZI7) | 91.1 |
| Rho-associated protein kinase 1 (ROCK1, Homo sapiens, UniProt Q13464) | 100 |
| MAP/microtubule affinity-regulating kinase 4 (MARK4, Homo sapiens, UniProt Q96L34) | 102 |
| Hepatocyte growth factor receptor (MET, Homo sapiens, UniProt P08581) | 99.7 |

Block 2
Target: Beta-1 adrenergic receptor (ADRB1, Homo sapiens, UniProt P08588)
Sequence of UniProt P08588 (whole entry, looked up): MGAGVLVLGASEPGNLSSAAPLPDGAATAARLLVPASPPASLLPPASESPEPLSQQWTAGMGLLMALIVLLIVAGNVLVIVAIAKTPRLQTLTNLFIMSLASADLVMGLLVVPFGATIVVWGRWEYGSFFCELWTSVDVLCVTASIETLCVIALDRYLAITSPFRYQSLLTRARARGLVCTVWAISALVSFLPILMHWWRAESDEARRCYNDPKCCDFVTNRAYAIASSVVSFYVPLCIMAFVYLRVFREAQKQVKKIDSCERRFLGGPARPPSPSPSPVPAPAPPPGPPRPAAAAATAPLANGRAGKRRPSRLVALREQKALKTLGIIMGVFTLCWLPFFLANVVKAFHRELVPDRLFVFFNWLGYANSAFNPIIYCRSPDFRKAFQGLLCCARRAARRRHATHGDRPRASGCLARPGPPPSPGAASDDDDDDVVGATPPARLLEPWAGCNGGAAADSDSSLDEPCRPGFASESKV
Action: agonist
| Structure (SMILES) | EC50 [µM] |
| --- | --- |
| Clc1cccc(Nc2cnc3ccc(N4CCOCC4)nn23)c1 | ≥ 100 |
| c1cc(-c2cc3c(ccn3Cc3ccncc3)c(N3CCOCC3)n2)c2cn[nH]c2c1 | ≥ 100 |
| COc1ccccc1N1CCN([C@H]2[C@@H]3OC[C@@H](O3)[C@@H](NCc3ccccc3O)[C@@H]2O)CC1 | ≥ 100 |
| Cc1cc2c(F)c(Oc3ncnn4cc(OCC(C)O)c(C)c34)ccc2[nH]1 (stereo not drawn) | ≥ 100 |
| N[S+](=O)([O-])c1ccc(CCNCC2(O)CNCCOC2)cc1 (stereo not drawn) | ≥ 100 |
| Cc1ccc2c(-c3ccc(NC4CC4)nn3)cccc2n1 | ≥ 100 |
| CC(C)(C)NCC(O)COc1ccccc1OCC1CCCO1 (stereo not drawn) | 0.0332 |

Block 3
Compound: O=C1CCc2cc(Nc3cc(OC4CCOCC4)c([N+](=O)[O-])cc3Cl)ccc2N1
Observed: cell-free assay
Technique: competition with immobilised ligand
Concentration: 1 µM
| target | remaining binding [%] |
| --- | --- |
| Uncharacterized serine/threonine-protein kinase SBK3 (SBK3, Homo sapiens, UniProt P0C264) | 100 |
| Dual specificity protein kinase CLK1 (CLK1, Homo sapiens, UniProt P49759) | 84 |
| Cyclin-dependent kinase-like 1 (CDKL1, Homo sapiens, UniProt Q00532) | 78 |
| Tyrosine-protein kinase ABL1, phosphorylated (ABL1, Homo sapiens, UniProt P00519, M351T) | 100 |
| Mast/stem cell growth factor receptor Kit (KIT, Homo sapiens, UniProt P10721) | 95 |
| Tyrosine-protein kinase TXK (TXK, Homo sapiens, UniProt P42681) | 79 |

Block 4
Host: mouse
Sample: microsomes or S9
Concentration: 2 µM
Time: 0.5 h
| SMILES | remaining compound [%] |
| --- | --- |
| Cc1cc(O)nc(SCC(=O)C23CC4CC(CC(C4)C2)C3)c1C#N | 15 |
| COCCN(C)C(=O)Cn1c(-c2ccccc2)nn(-c2cccc(C)c2)c1=O | 52 |
| N[C@@H](CC(=O)N1CCN(C(=O)OCc2ccccc2)CCN1C(=O)c1ccccc1)Cc1cc(F)c(F)cc1F | 7.36 |
| O=C(O)c1nc2nc(C3CC3)cc(C(F)(F)F)n2n1 | 93 |
| COc1ccc(-n2c(C)c(C)c3nc(OC)ccc32)cc1 | 0.13 |
| CCc1ccc(S(=O)(=O)[C@H]2CS(=O)(=O)C[C@@H]2N(C)CCc2ccncc2)cc1 | 0.468 |
| O=S(=O)(Nc1ccc(Br)cc1)C1CCCCC1O (stereo not drawn) | 47.8 |

For quick reference, copied from above (block 4):
| SMILES | remaining compound [%] |
| --- | --- |
| Cc1cc(O)nc(SCC(=O)C23CC4CC(CC(C4)C2)C3)c1C#N | 15 |
| COCCN(C)C(=O)Cn1c(-c2ccccc2)nn(-c2cccc(C)c2)c1=O | 52 |
| N[C@@H](CC(=O)N1CCN(C(=O)OCc2ccccc2)CCN1C(=O)c1ccccc1)Cc1cc(F)c(F)cc1F | 7.36 |
| O=C(O)c1nc2nc(C3CC3)cc(C(F)(F)F)n2n1 | 93 |
| COc1ccc(-n2c(C)c(C)c3nc(OC)ccc32)cc1 | 0.13 |
